Assay results collected from several papers.
Each numbered part is a random draw from the data of one study; scales do not carry over between parts. Substitutions count along the parent as printed.

Series 1 — target: CCNF, cyclin fold, Cln2 fusion (human); method: yeast growth competition, sequencing; sample: yeast; setting: strong parent motif; reference: not given; reading: higher = stronger binding
Starting sequence: SAMHD1 docking peptide (human); ASKSRVQLFKDDP
| Substitution | normalised enrichment score |
| --- | --- |
| ASKSRVQLFKFDP [D11F] | 0.812 |
| ASKSRVQLFKTDP [D11T] | 0.812 |
| ASKSRVQTFKDDP [L8T] | -0.0761 |
| ASKSLVQLFKDDP [R5L] | 0.106 |
| ASKRRVQLFKDDP [S4R] | 1.1 |
| AGKSRVQLFKDDP [S2G] | 1.28 |
| AFKSRVQLFKDDP [S2F] | 2.45 |

Series 2 — method: RNA Bind-n-Seq; molecule type: RNA; sample: in vitro; concentration: 365 nM; reference: no-protein control; reading: higher = stronger binding
Target: RNA binding protein fox-1 homolog 2, RRM domain, GST-SBP tag (RBFOX2, Homo sapiens, UniProt O43251-10, residues 100-194)
Setting: natural RNA segment, single round, ends assumed
Residues (chain): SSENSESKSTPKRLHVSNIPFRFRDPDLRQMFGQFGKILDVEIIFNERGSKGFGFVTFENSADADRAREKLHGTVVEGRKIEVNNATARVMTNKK
| Strand | RBNS enrichment (R) |
| --- | --- |
| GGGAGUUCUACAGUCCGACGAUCUACCAUUGCUGUUGGGAGGAAGCAGAGGCAGAUGGGAAAGCAGAGAGAGGAGCGCGCUUCCUUUCCUCCCCGCUGCCGCCCACCCUGGGGAGAGACUUUUGCGGGGAGGGUGGAAUUCUCGGGUGCCAA | 0.843 |
| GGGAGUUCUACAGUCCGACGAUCGUACAUACCAGUUUCUGAUGUUUCAGGCAGGAGUGGGGUAAAUAAGUGUGACCACUUAAAGCUGCUCGUUAGCAUGGAAGACUUCUCCAUUCUAUCUUUGUAAAACAGACUGGAAUUCUCGGGUGCCAA | 0.623 |
| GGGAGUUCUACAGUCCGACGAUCUUUAAAAAGGGGAUGCCUGUCAGUAAAUCCCCUGUGCAUUGACUAGAACUGGGGGGCUGCGCCCGCUCCCUCCUUAAUCCUAGAUGAUUUGCUCAUGAAAUAGAGGUGGGUGGAAUUCUCGGGUGCCAA | 0.973 |
| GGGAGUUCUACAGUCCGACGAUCUUUGAAACCAGUCUGCACUACAUGAGGCUUUGUCUCAAAAUGAAAAAGUUUGAGAUUAUCCUAGGCUACAUAGCAAGGUGAUUUCAAGAAAGAGAUGAAGGAAGGAAGGAUGGAAUUCUCGGGUGCCAA | 0.407 |
| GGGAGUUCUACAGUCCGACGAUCAAUUCUUCUAUCCUCUUUCCCUCUUGCAUUAACCUUUGCUGAUCCUCAGGGACCACUCCCCCAGCACUUUUGUGUUUGGGUGAGGGAUGUUGGACAGAGCCCAUUUUUAUUGGAAUUCUCGGGUGCCAA | 0.326 |
| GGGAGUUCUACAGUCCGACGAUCACUGUGGACGCCGGGCACUGUUGGAAACGAAGUUUUGUAAUUUCUGCCUGAUUCACCCUUAUUGGCAUGUGAGCCAUUGGGAUGCCAUUGAGAAUCAUGAUGAACUUUGGUGGAAUUCUCGGGUGCCAA | 1.2 |
| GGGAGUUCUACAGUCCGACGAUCGCAUCCCCAGCUGCCCCACAUCUUGCCUCUGGCCCUCAGAGAGGGGUGUUUCUGUGGGUACUCCUCUUACCCCAGCAAAUAAAAGGAAUUGUCUGACCCUAGAGGCAGAUUGGAAUUCUCGGGUGCCAA | 1.63 |
| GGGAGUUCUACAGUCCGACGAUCCUCAUCCAGACAAGCUGACCUUUGAGUUAAUUUCAGCACAACUCAUUCUUCAGUGCCUCAUGACUGAAAACAAAAAACAAAAAAACGAAAGCAUCUUCACAAUGAAGCUUUGGAAUUCUCGGGUGCCAA | 0.428 |

Series 3 — method: RNA Bind-n-Seq; molecule type: RNA; sample: in vitro; concentration: 200 nM; setting: whole 134-nt RNA, ends assumed; added: 150 mM LiCl; reference: input library; reading: higher = stronger binding; library: 7-deaza-guanosine replaces G
Target: Ras GTPase-activating protein-binding protein 1, full length (G3BP1, Homo sapiens, UniProt Q13283)
Sequence of UniProt Q13283 (whole entry, looked up): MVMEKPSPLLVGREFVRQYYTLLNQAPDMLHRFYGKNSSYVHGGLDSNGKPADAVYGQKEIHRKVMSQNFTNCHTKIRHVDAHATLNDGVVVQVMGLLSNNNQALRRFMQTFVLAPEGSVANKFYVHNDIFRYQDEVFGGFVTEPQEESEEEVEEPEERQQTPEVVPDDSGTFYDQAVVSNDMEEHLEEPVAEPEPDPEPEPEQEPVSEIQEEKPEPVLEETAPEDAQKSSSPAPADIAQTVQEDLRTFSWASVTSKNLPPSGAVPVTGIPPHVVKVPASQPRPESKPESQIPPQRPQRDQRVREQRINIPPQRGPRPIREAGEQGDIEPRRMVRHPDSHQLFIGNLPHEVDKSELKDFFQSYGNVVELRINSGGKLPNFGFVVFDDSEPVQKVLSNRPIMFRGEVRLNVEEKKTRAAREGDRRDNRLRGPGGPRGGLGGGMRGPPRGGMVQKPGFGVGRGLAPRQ
| Strand | log2 enrichment |
| --- | --- |
| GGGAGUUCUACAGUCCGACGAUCCACAGACAACACGCACCCACACAGACACAGAGGGAAGGGGUUGGGAAAGGGACAGGGUGCACAGCAGGGCGGGGUAGGACCCCAGCCCCUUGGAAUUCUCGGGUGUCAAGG | 0.368 |
| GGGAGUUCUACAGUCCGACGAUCUGGGAGGUGGAUUUUGUUUAUUUUUUUGGCUCAUUUCCAGGGGUGGGAAUUUUUUUUUAAUAUGUGUCAUGAAUAAAGUUGUUUUUGAAAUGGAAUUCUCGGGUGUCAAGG | 0.4 |
| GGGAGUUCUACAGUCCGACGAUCGUCCUGUGCUACACAUCGUAUGUACCGAAUCGGGUUUUUUUGGGAAAGGGAAAAAGGGAAAGUAUUAUGUUACGCCGUUCGGAUCUGCACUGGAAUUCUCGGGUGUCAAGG | -0.751 |
| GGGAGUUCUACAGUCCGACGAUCGUCCUGUGCUACACAUCGUAUGUACCGAAUCGGGGAAAAGGGAAAAGGGGAAAAGGGGAAAGUAUUAUGUUACGCCGUUCGGAUCUGCACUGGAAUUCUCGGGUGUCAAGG | 0.356 |
| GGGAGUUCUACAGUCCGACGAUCUAACUUUAGAGGAGGAUCUGAUGGAUAUGGCAGUGGACGUGGAUUUGGGGAUGGCUAUAAUGGGUAUGCAGGAGGACCUGGAGGUGGCAAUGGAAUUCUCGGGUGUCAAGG | 0.423 |
| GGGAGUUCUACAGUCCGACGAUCUUGUCUACAGAACUAGACAGUACGGAUGGUGCCAAAGUUUUUAGUAAACAACCAGGAAGAAUCCAAAGAGUAGCAAGAGGAUCGGGUGUAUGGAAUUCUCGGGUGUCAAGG | -2.27 |
| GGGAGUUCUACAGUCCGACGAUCGAAGGAAGUAAAAACAAAUGGAAAUGCUUCGGAUAGUGGCAGGGGUGGGGGUUGCUAAGGAAAGGGUGGGAUGGGAGUGGGUAAAGAGUUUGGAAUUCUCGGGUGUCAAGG | -0.15 |

Mixed results
| Molecule | target | test | test system | conditions | how to read | quantity | result |
| --- | --- | --- | --- | --- | --- | --- | --- |
| PhoQ, residues 284 288 289 292 302 303 SQSLSM | PhoP, residues 12 14 15 18 19 TPLRH (Escherichia coli, UniProt P23836) | Sort-seq, measured: YFP reporter | E. coli | PhoQ-PhoP variant library, added: 10 µM Mg2+ | reference: high Mg2+ state, higher = stronger signaling | fold induction | 1.08 |

Excerpt of the above (series 2):
| Strand | RBNS enrichment (R) |
| --- | --- |
| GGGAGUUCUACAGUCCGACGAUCGUACAUACCAGUUUCUGAUGUUUCAGGCAGGAGUGGGGUAAAUAAGUGUGACCACUUAAAGCUGCUCGUUAGCAUGGAAGACUUCUCCAUUCUAUCUUUGUAAAACAGACUGGAAUUCUCGGGUGCCAA | 0.623 |
| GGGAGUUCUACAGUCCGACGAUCUUUAAAAAGGGGAUGCCUGUCAGUAAAUCCCCUGUGCAUUGACUAGAACUGGGGGGCUGCGCCCGCUCCCUCCUUAAUCCUAGAUGAUUUGCUCAUGAAAUAGAGGUGGGUGGAAUUCUCGGGUGCCAA | 0.973 |
| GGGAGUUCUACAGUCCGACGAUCUUUGAAACCAGUCUGCACUACAUGAGGCUUUGUCUCAAAAUGAAAAAGUUUGAGAUUAUCCUAGGCUACAUAGCAAGGUGAUUUCAAGAAAGAGAUGAAGGAAGGAAGGAUGGAAUUCUCGGGUGCCAA | 0.407 |
